{"data": "Measured values gathered from unrelated publications", "note": "Each numbered part is a random draw from the data of one study; scales do not carry over between parts."}
{"data": "Block 1", "target": "Histone acetyltransferase KAT6A, winged helix 2, GST fusion (KAT6A, Homo sapiens, UniProt Q92794, residues 85-181)", "method": "protein binding microarray", "molecule type": "double-stranded DNA, one strand shown", "medium": "in vitro", "concentration": "not given", "setting": "8-mer, flanks averaged, mean of 2 arrays, mostly near background", "reference": "not given", "direction": "higher = stronger binding", "Residues (chain)": "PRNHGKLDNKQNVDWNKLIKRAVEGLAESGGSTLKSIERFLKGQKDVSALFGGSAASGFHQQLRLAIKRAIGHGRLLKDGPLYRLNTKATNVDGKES"}
{"Strand": "CCAGGTGC", "E-score": 0.0966}
{"Strand": "CCTGGCAC", "E-score": -0.00169}
{"Strand": "GCCGTCCA", "E-score": 0.176}
{"data": "Block 2", "target": "Sal-like protein 4, full length isoform A (SALL4, Homo sapiens, UniProt Q9UJQ4, residues 1-1053)", "method": "universal PBM", "molecule type": "double-stranded DNA, one strand shown", "medium": "in vitro", "concentration": "600 nM", "setting": "8-mer, flanks averaged, mean of replicates", "direction": "higher = stronger binding", "sequence of UniProt Q9UJQ4 (whole entry, looked up)": "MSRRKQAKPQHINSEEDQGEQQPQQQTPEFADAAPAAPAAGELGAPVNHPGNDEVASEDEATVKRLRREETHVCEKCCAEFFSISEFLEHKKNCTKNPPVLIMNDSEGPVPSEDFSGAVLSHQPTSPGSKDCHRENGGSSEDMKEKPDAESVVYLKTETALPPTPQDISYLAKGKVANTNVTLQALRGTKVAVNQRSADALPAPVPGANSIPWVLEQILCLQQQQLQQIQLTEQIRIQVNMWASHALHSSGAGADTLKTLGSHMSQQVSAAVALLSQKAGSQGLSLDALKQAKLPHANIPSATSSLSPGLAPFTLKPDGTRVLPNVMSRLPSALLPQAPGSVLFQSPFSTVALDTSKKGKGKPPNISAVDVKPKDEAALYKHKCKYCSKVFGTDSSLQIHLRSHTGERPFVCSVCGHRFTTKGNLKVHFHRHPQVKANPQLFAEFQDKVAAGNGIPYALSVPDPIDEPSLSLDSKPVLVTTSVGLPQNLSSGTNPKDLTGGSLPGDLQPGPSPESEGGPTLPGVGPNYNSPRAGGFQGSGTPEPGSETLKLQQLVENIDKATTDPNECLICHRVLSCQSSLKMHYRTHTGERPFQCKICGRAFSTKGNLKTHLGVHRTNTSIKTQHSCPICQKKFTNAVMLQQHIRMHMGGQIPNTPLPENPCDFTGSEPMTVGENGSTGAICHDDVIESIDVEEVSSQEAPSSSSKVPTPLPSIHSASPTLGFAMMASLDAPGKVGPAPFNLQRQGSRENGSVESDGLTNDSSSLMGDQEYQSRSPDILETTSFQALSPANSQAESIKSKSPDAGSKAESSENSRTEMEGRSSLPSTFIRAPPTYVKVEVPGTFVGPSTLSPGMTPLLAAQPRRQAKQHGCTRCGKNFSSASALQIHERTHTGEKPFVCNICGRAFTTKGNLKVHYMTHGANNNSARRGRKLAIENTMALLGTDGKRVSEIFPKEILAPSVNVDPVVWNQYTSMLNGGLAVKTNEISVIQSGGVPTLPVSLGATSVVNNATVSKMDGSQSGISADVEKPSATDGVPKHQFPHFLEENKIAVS"}
{"Strand": "ACCCTGAA", "E-score": -0.0524}
{"Strand": "TCCGGAAA", "E-score": -0.0875}
{"Strand": "AACATAAG", "E-score": 0.267}
{"Strand": "CTCCTCTA", "E-score": -0.0477}
{"Strand": "CATAAGTC", "E-score": 0.238}
{"data": "Block 3", "target": "Interferon regulatory factor 5, full length, phosphomimetic (IRF5, Homo sapiens, UniProt Q13568-2, residues 1-514, S451D/S453D/S456D/S462D)", "method": "protein-binding microarray", "molecule type": "double-stranded DNA, one strand shown", "medium": "in vitro", "concentration": "940 nM top", "setting": "60-bp whole probe", "added": "salmon DNA 0.4 mg/ml", "reference": "random background probes", "direction": "higher = stronger binding"}
{"Strand": "GCCTAGCACGACGGTCTCGGTAGCGGGACGTGCTAGGTCTTGATTCGCTTGACGCTGCTG", "fitted relative affinity [z-score]": 2.9}
{"Strand": "GCCTAGCACGACGAACTGGGGTATAGAGACGTGCTAGTCTTGATTCGCTTGACGCTGCTG", "fitted relative affinity [z-score]": -0.244}
{"Strand": "GCCTAGCACCACGATCTCAGTATCGAGACGTGCTAGGTCTTGATTCGCTTGACGCTGCTG", "fitted relative affinity [z-score]": 1.95}
{"Strand": "GCCTAGCACGACGATATCGGGTCTCGAGACGTGCTAGTCTTGATTCGCTTGACGCTGCTG", "fitted relative affinity [z-score]": 0.583}
{"data": "Further values, each from its own experiment"}
{"Substance": "PhoQ, residues 284 288 289 292 302 303 SLSLLA", "target": "PhoP, residues 12 14 15 18 19 DLLYY (Escherichia coli, UniProt P23836)", "test": "Sort-seq, measured: YFP reporter", "system": "E. coli", "setting": "PhoQ-PhoP variant library, added: 10 µM Mg2+", "how to read": "reference: high Mg2+ state, higher = stronger signaling", "endpoint": "fold induction", "result": 0.851}
{"note": "Some of these lines once more (block 2):"}
{"Strand": "CTCCTCTA", "E-score": -0.0477}
